Measured values of several laboratories.
Lines come from different studies, so protocols differ. ± marks the error that the study gave.

For CNS(=O)(=O)Nc1nccc(Cc2c(C)c3ccc(Oc4ncccc4F)cc3oc2=O)c1F, the IC50 was 0.225 µM (NCI-H1568; cell viability; 7 days).
With COc1ccc(CC[C@H]2OC(=O)[C@@H]3CCCCN3C(=O)C(=O)C(C)(C)COC(=O)C=CCCN(C)C(=O)[C@H](CC(C)C)NC(=O)[C@@H](Cc3ccccc3)N(C)C(=O)[C@@H]3CCCN3C(=O)[C@H](CC(C)C)N(C)C(=O)CCC(=O)Nc3cccc2c3)cc1OC the IC50 was over 20 µM (HUVEC; thymidine uptake, inhibitor).
CC[C@H](C)[C@H](NC(=O)[C@H](CCCCN)NC(=O)[C@H](Cc1ccccc1)NC(=O)[C@H]1CCC[C@@H]1NC(=O)CN)C(=O)N[C@H](CC(=O)N[C@@H](CCCCN)C(=O)N[C@@H](CCCCN)C(=O)N[C@H]1CCC[C@@H]1C(=O)N[C@@H](C)C(=O)N[C@@H](CCC(=O)O)C(=O)N[C@@H](CO)C(=O)N[C@H](CC(N)=O)Cc1ccccc1)[C@@H](C)CC gave an IC50 of 102 µg/mL (HUVEC; cytotoxicity).
The IC50 of c1ccc2nc3c4cccnc4c4ncccc4c3nc2c1 is reported as over 50 µM (L02; cell growth or viability, MTT; 48 h).
For O=C(O)C(CO)NCc1cc(Cl)c(OCc2cccc(-c3ccccc3)c2Br)cc1OCc1cccnc1 (stereo not drawn), the IC50 was over 10 µM (human PBMC; MTT).
The IC50 of CN(C)c1ccc(CCC(=O)N2C(=O)C3(NC(c4ccc(F)cc4)C4(C(=O)Nc5ccccc54)N3Cc3ccc(F)cc3)c3ccccc32)cc1 (stereo not drawn) is reported as over 100 µM (L02; cell growth or viability, MTT; 48 h).
With C[C@H](c1ccccc1)N1C(=O)C2=Nc3cc([N+](=O)[O-])ccc3CN2C1=S the IC50 was 0.14 µM (CCRF-CEM; cell growth or viability, resazurin; 72 h).
Cc1ncsc1-c1ccc(C(C)NC(=O)C2CC(O)CN2C(=O)C(NC(=O)CCCCCCCCCCN2CCCC(Nc3ncc(Cl)c(Nc4ccccc4S(=O)(=O)C(C)C)n3)C2)C(C)(C)C)cc1 (stereo not drawn) — result for “log2 fold change”: -1.93 (22Rv1; RNA-seq, measured: PROSER3 mRNA; concentration not given; relative to: DMSO).
Cn1ncc(-c2ccc3c(=O)[nH]nc(CN)c3c2)c1-c1c(F)c(Cl)cc(OC2CC2)c1C#N gave an IC50 of 0.13 µM (HCC1395; cell viability, inhibitor, CellTiter-Glo; 120 h, baseline-subtracted).
Cc1ccc2c(Cl)cc(Cl)c([O-])c2n1.Cc1ccc2c(Cl)cc(Cl)c([O-])c2n1.Clc1ccnc2c1ccc1c(Cl)ccnc12.[Co+2] has an IC50 of 65.52 ± 0.45 µM (HL-7702 normal hepatocytes; cell viability, MTT; 48 h).
The IC50 of C[C@@H](c1ccccc1)N1C(=O)C2=Nc3ccccc3CN2C1=S is reported as 0.482 µM (CCRF-CEM; cell growth or viability, resazurin; 72 h).
CN1CCCNC(=O)c2cccc(c2)C(=O)NCCCN(C)CCCNc2cccc3c2C(=O)c2cccc(c2C3=O)NCCC1: “log2 fold change” 1.41 (SAS; RNA-Seq, measured: NLRX1 mRNA; 1 µM, 6 h; relative to: untreated cells).
With COC1CC(=O)c2c(O)cccc2C12Oc1cccc3cccc(c13)O2 (stereo not drawn) the IC50 was over 25 µM (MDA-MB-435; cell growth or viability, resazurin; 72 h).
For CC[C@H](C)[C@H](NC(=O)[C@H](CCCCN)NC(=O)C[C@H](Cc1ccccc1)NC(=O)[C@H](CC(C)C)NC(=O)CN)C(=O)N[C@H](CC(=O)N[C@@H](CCCCN)C(=O)N[C@@H](CCCCN)C(=O)N[C@H](CC(=O)N[C@@H](C)C(=O)N[C@@H](CCCCN)C(=O)N[C@@H](CO)CC(=O)N[C@@H](Cc1ccccc1)C(N)=O)[C@@H](C)CC)[C@@H](C)CC, the IC50 was 50.4 µg/mL (HUVEC; cytotoxicity).
CO[C@@H]1[C@@H](OC(=O)c2ccc(C)[nH]2)[C@@H](O)[C@H](Oc2ccc3c(O)c(NC(=O)c4c[nH]c(C(=O)Nc5c(O)c6ccc(O[C@@H]7OC(C)(C)[C@H](OC)[C@@H](OC(=O)c8ccc(C)[nH]8)[C@H]7O)c(C)c6oc5=O)c4C)c(=O)oc3c2C)OC1(C)C has an IC50 of about 12 µM (human Keratinocyte; cell growth or viability, ATP luminescence; 72 h).
The IC50 of C[C@@H](c1cccc2ccccc12)N1C(=O)C2=Nc3ccccc3CN2C1=S is reported as 0.191 µM (CCRF-CEM; cell growth or viability, resazurin; 72 h).
With O=C1C(Nc2ccc(Cl)cc2)c2ccccc2N1Cc1ccccc1 (stereo not drawn) the IC50 was 81.5 µM (L02; cell growth or viability, MTT; 48 h).
For CCCc1cc2cc(-n3nc(C(C)C)c4c3CC(C)(C)CC4=O)cc(N3CCC(O)CC3)c2c(=O)[nH]1, the IC50 was 8.22 µM (SK-OV-3; cell growth or viability, MTS).
The IC50 of N#Cc1ccc(-c2csc(C(=O)NOCCCCCC(=O)NO)n2)cc1 is reported as 6.53 µM (neonatal foreskin fibroblasts; cytotoxicity, sulforhodamine B; 72 h).
O=C1Nc2ccccc2C12NC(c1ccc(Cl)c(Cl)c1)C1(C(=O)Nc3ccccc31)N2Cc1ccc(Cl)c(Cl)c1 (stereo not drawn) has an IC50 of over 100 µM (L02; cell growth or viability, MTT; 48 h).
The IC50 of Cc1ccc([N+](=O)[O-])cc1S(=O)(=O)N(C)/N=C/c1cnc2ccc(Br)cn12 is reported as 0.177 µM (SF-539; MTS; NCI60 panel).
For COC1CN([C@H]2CC[C@H]([C@@]3(C)Oc4c(Cl)cc(C(=O)NCc5c(SC)cc(C)[nH]c5=O)c(C)c4O3)CC2)C1, “log2 fold change” read 1.23 (RNA-seq, measured: ZNRF3; human, whole blood; dose not given, 24 h; relative to: pretreatment baseline).
With COc1ccc(CC[C@H]2OC(=O)[C@@H]3CCCCN3C(=O)C(=O)C(C)(C)COC(=O)C=CCCN(C)C(=O)[C@H](CC(C)C)N(C)C(=O)[C@H]3CCCN3C(=O)[C@H](CC3CCCCC3)NC(=O)[C@H](c3ccccc3)NC(=O)CCC(=O)Nc3cccc2c3)cc1OC the IC50 was 0.199 ± 0.042 µM (HUVEC; thymidine uptake, inhibitor).
Cc1nc(Nc2ccc3c(c2)/C(=C/c2ccccc2Cl)C(=O)N3C)c2ccccc2n1 has an IC50 of 3.21 µM (H22; cell growth or viability, MTT).
For N#Cc1c(N)nc2c(c1-c1ccc(F)cc1)Cc1cc(O)ccc1-2, the IC50 was 4.1 µM (HuT78; cell growth or viability, ATP luminescence).
The IC50 of Cc1cnc2nc1Nc1cccc(c1)COCCCCOCc1cc(ccc1OCCN1CCCC1)N2 is reported as 6.57 µM (HEL 92.1.7 JAK2 V617F; cell growth, CCK-8).
C[OH+][Cu-2]12[O]C(c3cn(-c4ccccc4)nc3-c3ccc(Cl)cc3)=N[N+]1=C(C)c1c(cc(C)oc1=O)[O]2 (stereo not drawn) has an IC50 of 93.1 µM (Vero; cell growth or viability, MTT; 48 h).
With COc1ccc(CC[C@H]2OC(=O)[C@@H]3CCCCN3C(=O)C(=O)C(C)(C)COC(=O)C=CCCN(C)C(=O)[C@H](CC(C)C)N(C)C(=O)[C@H]3CCCN3C(=O)[C@H](c3ccccc3)NC(=O)[C@H](c3ccccc3)NC(=O)CCC(=O)Nc3cccc2c3)cc1OC the IC50 was 0.261 ± 0.068 µM (HUVEC; thymidine uptake, inhibitor).
O=C(CCCCCONC(=O)c1nc(-c2ccc(N3CCCC3)cc2)cs1)NO has an IC50 of 0.65 µM (neonatal foreskin fibroblasts; cytotoxicity, sulforhodamine B; 72 h).
For COc1ccc(CC[C@H]2OC(=O)[C@@H]3CCCCN3C(=O)C(=O)C(C)(C)COC(=O)C=CCCN(C)C(=O)[C@@H](Cc3ccccc3)NC(=O)[C@@H](Cc3ccccc3)N(C)C(=O)[C@@H]3CCCN3C(=O)[C@H](CC(C)C)N(C)C(=O)CCC(=O)Nc3cccc2c3)cc1OC, the IC50 was over 20 µM (HUVEC; thymidine uptake, inhibitor).
C=CC(=O)N1CCCC(n2c(=O)c3ncccc3n(Cc3ccc(Oc4ccccc4)cc3)c2=O)C1 (stereo not drawn) gave an IC50 of 18 µM (AM-HLH; cell proliferation, MTT; 72 h).
For CC1(C)CCC(CN2CCN(c3ccc(C(=O)NS(=O)(=O)c4ccc(NCC5CCOCC5)c([N+](=O)[O-])c4)c(Oc4cnc5[nH]ccc5c4)c3)CC2)=C(c2ccc(Cl)cc2)C1, the IC50 was 0.013 ± 0.0023 µM (RS4-11; caspase-3/7 activation; 4 h).
CC(=O)[O][Pt]([NH2])([NH2])([Cl])([Cl])[O]C(=O)C(C)c1ccc(CC(C)C)cc1 (stereo not drawn) has an IC50 of 1.98 µM (BCPAP; cell growth or viability, MTT; 72 h).
NC(NN=Cc1ccc([N+](=O)[O-])o1)=[S+][Au-][Cl] gave an IC50 of over 100 µM (IMR-90; cell growth or viability, resazurin).
CCOc1cncc(-c2ccc(NC(=O)C3(c4ccnc(NS(=O)(=O)C5CC5)n4)CCOCC3)nc2)n1 has an IC50 of 0.157 µM (C32; cell growth or viability, ATP luminescence; 72 h).
The IC50 of COc1ccc(CC[C@H]2OC(=O)[C@@H]3CCCCN3C(=O)C(=O)C(C)(C)COC(=O)C=CCCN(C)C(=O)[C@H](Cc3ccccc3)N(C)C(=O)[C@H]3CCCN3C(=O)[C@H](CC(C)C)N(C)C(=O)[C@H](Cc3ccccc3)NC(=O)CCC(=O)Nc3cccc2c3)cc1OC is reported as over 20 µM (HUVEC; thymidine uptake, inhibitor).
The IC50 of CC(C)c1ccc(N(C)c2ccc3c(c2)OCC[C@H]3CNc2cnccc2C(=O)O)cc1 is reported as 0.0149 µM (Daudi; cell growth or viability, ATP luminescence; 7 days).
For CC(C)CCC[C@@H](C)[C@H]1CC[C@H]2[C@@H]3CC=C4C[C@@H](OC(=O)NCCCN(C)CCC[n+]5c6cc(N(C)C)ccc6cc6ccc(N(C)C)cc65)CC[C@]4(C)[C@H]3CC[C@]12C, the IC50 was over 100 µM (ARPE-19; cytotoxicity, CCK-8; 48 h).
For NC(=S)NN=Cc1ccc([N+](=O)[O-])o1, the IC50 was over 100 µM (IMR-90; cell growth or viability, resazurin).
CCCN1C(=O)C2=Nc3ccccc3CN2C1=S has an IC50 of 33.8 µM (CCRF-CEM; cell growth or viability, resazurin; 72 h).
Cc1ccnc(-c2cc(C)ccn2)c1.[Co+2].[O-]c1c(I)cc(I)c2cccnc12.[O-]c1c(I)cc(I)c2cccnc12 gave an IC50 of 80.45 ± 0.33 µM (HL-7702 normal hepatocytes; cell viability, MTT; 48 h).
COc1ccc(CC[C@H]2OC(=O)[C@@H]3CCCCN3C(=O)C(=O)C(C)(C)COC(=O)C=CCCN(C)C(=O)[C@@H](CC(C)C)N(C)C(=O)[C@@H]3CCCN3C(=O)[C@@H](Cc3ccccc3)N(C)C(=O)[C@H](Cc3ccccc3)NC(=O)CCC(=O)Nc3cccc2c3)cc1OC gave an IC50 of over 20 µM (HUVEC; thymidine uptake, inhibitor).
Nc1nnc(-c2ccccc2O)cc1N1CC2CCC(C1)N2c1ccnc(C#CCCN2CCCCCC2)c1 has an IC50 of over 1 µM (NCI-H522 SMARCA4/SMARCA2-deficient; cell viability, CellTiter-Glo; 168 h).
C[C@H](c1ccccc1)N1C(=O)C2=Nc3ccc(Br)cc3CN2C1=S gave an IC50 of 0.483 µM (CCRF-CEM; cell growth or viability, resazurin; 72 h).
For COc1ccc(CC[C@H]2OC(=O)[C@@H]3CCCCN3C(=O)C(=O)C(C)(C)COC(=O)C=CCCN(C)C(=O)[C@H](CC(C)C)N(C)C(=O)[C@H]3CCCN3C(=O)[C@H](Cc3ccc(-c4ccccc4)cc3)NC(=O)[C@H](c3ccccc3)NC(=O)CCC(=O)Nc3cccc2c3)cc1OC, the IC50 was 0.194 ± 0.051 µM (HUVEC; thymidine uptake, inhibitor).

For quick reference, copied from above:
C[C@H](c1ccccc1)N1C(=O)C2=Nc3ccc(Br)cc3CN2C1=S gave an IC50 of 0.483 µM (CCRF-CEM; cell growth or viability, resazurin; 72 h).
Cc1nc(Nc2ccc3c(c2)/C(=C/c2ccccc2Cl)C(=O)N3C)c2ccccc2n1 has an IC50 of 3.21 µM (H22; cell growth or viability, MTT).
The IC50 of CN(C)c1ccc(CCC(=O)N2C(=O)C3(NC(c4ccc(F)cc4)C4(C(=O)Nc5ccccc54)N3Cc3ccc(F)cc3)c3ccccc32)cc1 (stereo not drawn) is reported as over 100 µM (L02; cell growth or viability, MTT; 48 h).
For COc1ccc(CC[C@H]2OC(=O)[C@@H]3CCCCN3C(=O)C(=O)C(C)(C)COC(=O)C=CCCN(C)C(=O)[C@@H](Cc3ccccc3)NC(=O)[C@@H](Cc3ccccc3)N(C)C(=O)[C@@H]3CCCN3C(=O)[C@H](CC(C)C)N(C)C(=O)CCC(=O)Nc3cccc2c3)cc1OC, the IC50 was over 20 µM (HUVEC; thymidine uptake, inhibitor).
The IC50 of COc1ccc(CC[C@H]2OC(=O)[C@@H]3CCCCN3C(=O)C(=O)C(C)(C)COC(=O)C=CCCN(C)C(=O)[C@H](Cc3ccccc3)N(C)C(=O)[C@H]3CCCN3C(=O)[C@H](CC(C)C)N(C)C(=O)[C@H](Cc3ccccc3)NC(=O)CCC(=O)Nc3cccc2c3)cc1OC is reported as over 20 µM (HUVEC; thymidine uptake, inhibitor).
For COc1ccc(CC[C@H]2OC(=O)[C@@H]3CCCCN3C(=O)C(=O)C(C)(C)COC(=O)C=CCCN(C)C(=O)[C@H](CC(C)C)N(C)C(=O)[C@H]3CCCN3C(=O)[C@H](Cc3ccc(-c4ccccc4)cc3)NC(=O)[C@H](c3ccccc3)NC(=O)CCC(=O)Nc3cccc2c3)cc1OC, the IC50 was 0.194 ± 0.051 µM (HUVEC; thymidine uptake, inhibitor).
